Literature values as cited in several papers.
Each numbered part shows a few of the values that one paper quotes. Converted amounts (≈) assume the structure as drawn.

Series 1
SMILES: CCCCCCCCNC(C)C(O)c1ccc(SC(C)C)cc1 (centres unmarked)
Cell line: MCF7
Method: microarray
Tested at: concentration not given
Baseline: DMSO
It gave 1.25 for “log2 fold change” (item: TBC1D17 mRNA).
It gave 1.15 for “log2 fold change” (item: WDR45 mRNA).
The “log2 fold change” was 1.37 (item: VEZF1 mRNA).

Series 2
Organism: Cryptosporidium parvum
Method: high-throughput screen
Tested at: concentration not given
Under activity, `CN(C)CCCN1c2ccccc2CCc2ccc(Cl)cc21` is recorded as “inactive”.
`CCCc1nc(C)c2c(=O)[nH]c(-c3cc(S(=O)(=O)N4CCN(CC)CC4)ccc3OCC)nn12.O=C(O)CC(O)(CC(=O)O)C(=O)O` — result for activity: “inactive”.
For `CC(=O)O[C@]1(C(C)=O)CC[C@H]2[C@@H]3C[C@H](C)C4=CC(=O)CC[C@]4(C)[C@H]3CC[C@@]21C`, activity read “inactive”.
`CCOC(=O)CCC(=O)O[C@H]1[C@H](O[C@@H]2[C@@H](C)[C@H](O[C@H]3C[C@@](C)(OC)[C@@H](O)[C@H](C)O3)[C@@H](C)C(=O)O[C@H](CC)[C@@](C)(O)[C@H](O)[C@@H](C)C(=O)[C@H](C)C[C@@]2(C)O)O[C@H](C)C[C@@H]1N(C)C` — result for activity: “inactive”.
`CCCc1nc2c(C)cc(-c3nc4ccccc4n3C)cc2n1Cc1ccc(-c2ccccc2C(=O)O)cc1` — result for activity: “inactive”.
Under activity, `Cc1ncc([N+](=O)[O-])n1CC(O)CCl` (centres unmarked) is recorded as “inactive”.
`CNCCCN1c2ccccc2CCc2ccccc21`: activity “inactive”.
Under activity, `CCOC(=O)c1ncn2c1CN(C)C(=O)c1cc(F)ccc1-2` is recorded as “inactive”.
`COc1cc([C@@H]2c3cc4c(cc3[C@@H](O[C@@H]3O[C@@H]5CO[C@@H](C)O[C@H]5[C@H](O)[C@H]3O)[C@H]3COC(=O)[C@H]23)OCO4)cc(OC)c1O`: activity “inactive”.
Under activity, `CC(=O)OCC(CCn1cnc2cnc(N)nc21)COC(C)=O` is recorded as “inactive”.
`CC1=C(C(=O)O)N2C(=O)[C@@H](NC(=O)[C@H](N)c3ccccc3)[C@H]2SC1.O`: activity “inactive”.
For `CN(C)[C@@H]1C(O)=C(C(N)=O)C(=O)[C@@]2(O)C(O)=C3C(=O)c4c(O)ccc(Cl)c4[C@@H](O)[C@H]3C[C@@H]12`, activity read “inactive”.
`C[C@H]1[C@H](OC(=O)CCC(=O)O)O[C@@H]2O[C@@]3(C)CC[C@H]4[C@H](C)CC[C@@H]1[C@@]24OO3` — result for activity: “inactive”.
For `COc1cccc2c1C(=O)c1c(O)c3c(c(O)c1C2=O)C[C@@](O)(C(=O)CO)C[C@@H]3O[C@H]1C[C@H](N)[C@@H](O)[C@H](C)O1`, activity read “inactive”.
For `COc1cc(CNC(=O)CCCC/C=C\C(C)C)ccc1O`, activity read “inactive”.
Under activity, `C[C@]12CC[C@@H]3c4ccc(OS(=O)(=O)O)cc4CC[C@H]3[C@@H]1CCC2=O` is recorded as “inactive”.
`CN1[C@@H](CC(=O)c2ccccc2)CCC[C@H]1C[C@H](O)c1ccccc1.Cl`: activity “inactive”.
`COc1cc2nc(N(C)CCCNC(=O)C3CCCO3)nc(N)c2cc1OC` (centres unmarked): activity “inactive”.
`CC1(C)O[C@@H]2C[C@H]3[C@@H]4C[C@H](F)C5=CC(=O)C=C[C@]5(C)[C@@]4(F)[C@@H](O)C[C@]3(C)[C@]2(C(=O)CO)O1` — result for activity: “inactive”.
`CC(C)NCC(O)COc1ccc(COCCOC(C)C)cc1` (centres unmarked) — result for activity: “inactive”.
`CCc1c2c(nc3ccc(OC(=O)N4CCC(N5CCCCC5)CC4)cc13)-c1cc3c(c(=O)n1C2)COC(=O)[C@]3(O)CC.Cl` — result for activity: “inactive”.
`O=C(O)c1cc2ccccc2c(Cc2c(O)c(C(=O)O)cc3ccccc23)c1O.OCCOCCN1CCN(C(c2ccccc2)c2ccc(Cl)cc2)CC1`: activity “inactive”.
`COc1ccccc1OCC(O)CN1CCN(CC(=O)Nc2c(C)cccc2C)CC1` (centres unmarked) — result for activity: “inactive”.
`OCCN1C[C@H](O)[C@@H](O)[C@H](O)[C@H]1CO` — result for activity: “inactive”.
Under activity, `CC(C)(C)C(O)/C=C/c1ccc2c(c1)OCO2` (centres unmarked) is recorded as “inactive”.

Series 3
Target: dopamine transporter
For `Cc1ccnc2c1NC(=O)c1cccnc1N2C1CC1`, the IC50 was over 10 µM.
The IC50 of `CC1=C(/C=C/C(C)=C/C=C/C(C)=C\C(=O)O)C(C)(C)CCC1` is reported as over 10 µM.
For `Nc1nc2c(ncn2COCCO)c(=O)[nH]1`, the IC50 was over 10 µM.
`Nc1ccn([C@@H]2CS[C@H](CO)O2)c(=O)n1` gave an IC50 of over 10 µM.

Other studies, line by line
`O=C(N[C@H]1CCCCC/C=C\C2C[C@@]2(C(=O)O)NC(=O)[C@@H]2C[C@@H](Oc3ccncc3)CN2C1=O)OC1CCCC1` (some centres unmarked) has an IC50 of 4.87 µM (HCV NS3; biochemical).
`c1ccc2ccccc2c1` gave a Km of 8.06 µM (substrate; human liver microsomes).
The half-life of `COc1ccc(N2CCN(Cc3cn4c(-c5ccc(Br)cc5)nnc4s3)CC2)cc1` is reported as about 8 h (mouse).
For `CCn1c(=O)c(-c2cc(NC(=O)Nc3ccccc3)c(F)cc2Br)cc2cnc(NC)cc21`, “plasma protein binding” read 99.4% (human alpha-1-acid glycoprotein).
`COc1ncc(-c2nc3c(n2C(C)C)[C@H](c2ccc(Cl)cc2)N(c2cc(Cl)cn(C)c2=O)C3=O)c(OC)n1` gave a half-life, median of 6.4 to 31.1 h (human cancer patients; 1 to 400 mg, cycle 1 day 1, multiple dosing schedules).
For `COc1ccc2c(O[C@@H]3C[C@H]4C(=O)N[C@]5(C(=O)O)CC5/C=C\CCCCC[C@H](NC(=O)OC5CCCC5)C(=O)N4C3)cc(-c3csc(NC(=O)C(C)C)n3)nc2c1C` (some centres unmarked), the EC50 was under 0.0018 µM (HCV NS3; viral replication, cell-based; hepatitis C virus, genotype 1b).
`CC1(C)CCC2(CC1)N[C@@H](C(=O)N[C@@H]1CC[C@@H](C(N)=O)OC1)[C@H](c1ccnc(Cl)c1F)[C@]21C(=O)Nc2cc(Cl)ccc21` has a half-life of 10 h (human cancer patients; oral, 260 mg once daily, cycle 1 day 1).
With `NS(=O)(=O)c1cc2c(cc1Cl)N=CNS2(=O)=O` the crossover pressure was about 17 MPa (solubility in supercritical CO2).
`Cn1nc(C(F)(F)F)cc1-c1cnc(N2CCc3cc(S(=O)(=O)Nc4c(F)cc(Cl)cc4F)cc(N4CCCC4=O)c32)nc1` gave an IC50 of 0.16 µM (MGAT2 (human); cellular activity).
Under activity, `CCN(CC)CC.CCN(CC)CC.O=c1ccn([C@]23C[C@H]2[C@H](COP(=O)(O)OP(=O)(O)O)[C@@H](O)[C@H]3O)c(=O)[nH]1` is recorded as “inactive” (P2Y14 receptor; concentration not given).
`CC(=O)Nc1nc(CN2CCC[C@H](Cc3cc(C)nc(C)c3)C2)cs1` has an IC50 of over 1 µM (OGA (human); cellular activity).
`O=C([O-])CC[C@H](NC(=O)N[C@@H](CCCCNC(=O)CCCCCCC(=O)NCCCC[C@@H](NC(=O)[C@@H](Cc1ccccc1)NC(=O)[C@@H](Cc1ccc(O)c(I)c1)NC(=O)CC[C@H](C(=O)[O-])N1CCN(CC(=O)[O-])CCN(CC(=O)[O-])CCN(CC(=O)[O-])CC1)C(=O)[O-])C(=O)[O-])C(=O)[O-].[177Lu+3].[H+].[H+].[H+].[H+].[H+]`: “kidney absorbed dose” 0.73 Gy/GBq (human patients).
With `C=C(NC(=O)c1csc(-c2nc3c(cc2OC2OC(C)C(OC)C(OC)C2O)-c2nc(cs2)C(=O)N[C@@H]([C@@H](C)O)C(=O)N/C(=C(\C)OC)c2nc(cs2)C(=O)N[C@@H]2c4nc(c(OC5OC(C)C(OC6CCC(OC7CC(O)C(O)C(C)O7)C(C)O6)C(OC)C5OC)s4)C(=O)N[C@@H](COC(=O)c4c5c6c(cccc6n4O)COC(=O)C(O)C2OC5)c2nc-3cs2)n1)C(N)=O` (some centres unmarked) the MIC was 0.025 mg/L (≈ 0.0133 µM) (Staphylococcus aureus; MRSA).
For `COc1ccccc1Oc1c(NS(=O)(=O)c2ccc(C(C)(C)C)cc2)nc(-c2ncccn2)nc1OCCO`, “volume of distribution at steady state” read 0.16 L/kg (human; dose not given).
The oral bioavailability of `CN/C(=N/CCSCc1nc[nH]c1C)NC#N` is reported as 60 to 70% (human).
`CCCc1nn(C)c2c(=O)[nH]c(-c3cc(S(=O)(=O)N4CCN(C)CC4)ccc3OCC)nc12` gave a crossover pressure of 24 MPa (solubility in supercritical CO2).
For `CC(C)c1nc(N(C)S(C)(=O)=O)nc(-c2ccc(F)cc2)c1/C=C/[C@@H](O)C[C@@H](O)CC(=O)O`, the fraction absorbed was 50% (human).
`c1ccc2c(c1)ccc1ccccc12` has a bioconcentration factor of 243000 L/kg (fish; dose not given, experimental mean).
